Measurements collected from several papers.
Lines come from different studies, so protocols differ. Numbers after ± are the reported error.
CYP2C8: Cytochrome P450 2C8 (CYP2C8, Homo sapiens, UniProt P10632)

With `CC(C)Sc1cccc(O)c(=O)c1O` the IC50 was 2.4 µM (Ribonuclease HI (rnhA, Escherichia coli, UniProt P0A7Y4); enzyme activity, inhibitor).
With `O=C(N[C@@H](Cc1coc2ccccc12)B(O)O)[C@@H]1C[C@H]2CC[C@@H]1O2` the IC50 was 0.0041 ± 0.0024 µM (Proteasome component C5/PSMB8 (Homo sapiens, UniProt P20618+P28062); LMP7 enzyme activity, inhibitor; human immunoproteasome; 2 h preincubation, with: Suc-LLVY-AMC).
`CCC(=O)N(C)c1ccc(Cl)c(Cl)c1` gave an IC50 of greater than 25 µM (CYP2C8; enzyme activity, inhibitor; human, liver microsomes; 10 min).
With `C/C=C/C(=O)Nc1ccc2nc(NCCCCCN(C)C)nc(NCCCCCCN(C)C)c2c1` the IC50 was greater than 100 µM (TP53-binding protein 1, tandem tudor domain (Homo sapiens, UniProt Q12888); methyl-lysine binding, TR-FRET).
With `CCCCCC[N+](CCCCCC)(CCCCCC)CCCCCC` the IC50 was 0.5 µM (KCNK18 (Homo sapiens, UniProt Q7Z418); ion current, inhibitor, patch clamp).
`COc1ccc2c(c1OCc1ccccc1)C[C@@H](C(=O)O)N(c1nc3ccc(C#N)cc3o1)C2` has an IC50 of greater than 50 µM (CYP2C8; enzyme activity, inhibitor; human, liver microsomes; 15 min, pH 7.4).
For `Cc1c(NC(=O)c2ccc3c(c2)CC[C@@H]2C[C@@](O)(C(F)(F)F)CC[C@@]32Cc2ccccc2)ccc[n+]1[O-]`, the IC50 was 12 µM (CYP2C8; enzyme activity, inhibitor; human, liver microsomes).
`CC(=O)N[C@@H](Cc1c[nH]c2ccccc12)C(=O)N[C@H]1CSSC[C@@H](C(=O)N[C@H](C(N)=O)[C@@H](C)O)NC(=O)[C@H](CCCNC(=N)N)NC(=O)[C@H](Cc2c[nH]cn2)NC(=O)[C@H](C)NC(=O)CNC(=O)[C@H](Cc2c[nH]c3ccccc23)NC(=O)[C@H](CC(=O)O)NC(=O)[C@H](CCC(N)=O)NC(=O)[C@H](Cc2c[nH]c3ccccc23)NC(=O)[C@H](C(C)C)NC1=O` gave an IC50 of 0.29 µM (Complement C3 (Homo sapiens, UniProt P01024); C3b formation, ELISA; normal human serum; with: LPS-coated plate).
With `COc1ccc(CN2C[C@H](O)[C@H](O)[C@@H]2CO)cc1` the IC50 was 140 µM (Golgi alpha-mannosidase IIb (Drosophila melanogaster, UniProt Q9VF33); pH 6.0, 0.5 mM CoCl2, with: 2 mM pNP-Man).
With `Cc1ccc(-c2c(/C=C(\C#N)C(=O)NC(C)C)n(CCCO)c3ncnc(N)c23)cc1` the IC50 was 0.004 µM (Ribosomal protein S6 kinase alpha-3, C-terminal kinase domain (Rps6ka3, Mus musculus, UniProt P18654); enzyme activity, inhibitor; with: glutathione 10 mM pretreatment).
With `COc1cc(-c2nc3ccc(C(=O)NCCCN4CCN(C(=O)c5ccccc5)CC4)cc3n2C2CCC2)cc(OC)c1OC` the IC50 was greater than 30 µM (ACVRL1 (Homo sapiens, UniProt P37023); target engagement in cells, BRET).
For `CC(=O)N1CCN(c2cccc(NC(=O)CCc3cccc4c3B(O)OC4)c2)CC1`, the IC50 was 0.15 µM (CPSF3 (Homo sapiens, UniProt Q9UKF6); ligand displacement, FP).
For `O=C(COCc1ccccc1)N[C@@H](Cc1cn(CCNC(=O)c2ccc(S[C@@H]3O[C@H](CO)[C@H](O)[C@H](O)[C@H]3O)cc2)nn1)C(=O)NCCO`, the IC50 was 60.7 µM (lecA (Pseudomonas aeruginosa, UniProt Q05097); ligand displacement, FP).
With `Cc1cc(C)c(S(=O)(=O)Nc2ccc3c(c2)ncn3Cc2ccccc2)c(C)c1` the IC50 was 0.026 µM (NR1I2 (Homo sapiens, UniProt O75469)).

Repeated from above:
With `Cc1ccc(-c2c(/C=C(\C#N)C(=O)NC(C)C)n(CCCO)c3ncnc(N)c23)cc1` the IC50 was 0.004 µM (Ribosomal protein S6 kinase alpha-3, C-terminal kinase domain (Rps6ka3, Mus musculus, UniProt P18654); enzyme activity, inhibitor; with: glutathione 10 mM pretreatment).
